Measurements collected from several papers.
Numbered parts are unrelated; each lists some results of a single study.

Set 1
Target: Prothrombin, mature alpha-thrombin (F2, Homo sapiens, UniProt P00734)
Method: aptamer microarray, sandwich
Form: DNA with 2'F-ANA
Medium: in vitro
Tested at: 200 nM
Setting: whole 15-mer aptamer, many near background
With: Cy3 exosite-II aptamer, 400 nM
Direction: higher = stronger binding
Sequence: GGTTGGTGTGGTTGG
Modification | mean fluorescence intensity
2'F-ANA at 2 3 4 5 6 8 9 14 15 | 48 a.u.
2'F-ANA at 1 3 4 5 7 9 13 14 15 | 48.3 a.u.
2'F-ANA at 2 3 4 9 13 14 | 251 a.u.
2'F-ANA at 1 4 5 6 9 10 12 | 52.9 a.u.
2'F-ANA at 1 2 6 9 10 12 15 | 140 a.u.
2'F-ANA at 1 3 5 8 9 10 12 15 | 79 a.u.
2'F-ANA at 3 5 7 9 10 11 12 13 15 | 116 a.u.
2'F-ANA at 3 4 7 8 10 12 13 | 299 a.u.
2'F-ANA at 3 4 5 7 8 10 14 15 | 48.1 a.u.
2'F-ANA at 2 3 4 5 6 8 9 10 11 13 14 | 50.4 a.u.
2'F-ANA at 2 7 9 10 13 | 124 a.u.
2'F-ANA at 3 6 7 8 11 12 14 15 | 565 a.u.
2'F-ANA at 1 4 5 6 7 8 10 11 12 13 15 | 52.4 a.u.
2'F-ANA at 3 4 5 7 8 9 13 | 72 a.u.
2'F-ANA at 1 2 3 6 10 11 12 13 15 | 75.8 a.u.
2'F-ANA at 1 2 3 4 6 10 12 14 15 | 51.8 a.u.
2'F-ANA at 1 4 6 9 10 11 13 15 | 48.3 a.u.
2'F-ANA at 1 3 7 8 9 10 11 13 | 78 a.u.
2'F-ANA at 1 2 4 7 8 10 14 | 45.6 a.u.
2'F-ANA at 1 2 3 7 8 9 15 | 270 a.u.
2'F-ANA at 1 2 3 5 7 10 11 12 13 14 | 45.6 a.u.
2'F-ANA at 1 3 4 5 6 11 13 | 49.9 a.u.
2'F-ANA at 1 5 7 9 10 11 12 13 15 | 47 a.u.
2'F-ANA at 1 4 8 12 13 14 | 63.9 a.u.
2'F-ANA at 1 2 3 4 8 10 12 13 | 60.5 a.u.

Set 2
Target: RNA binding protein fox-1 homolog 2, RRM domain, GST-SBP tag (RBFOX2, Homo sapiens, UniProt O43251-10, residues 100-194)
Method: RNA Bind-n-Seq
Form: RNA
Medium: in vitro
Tested at: 365 nM
Setting: natural RNA segment, single round, ends assumed
Relative to: no-protein control
Direction: higher = stronger binding
Shared flanks, not repeated: GGGAGUUCUACAGUCCGACGAUC … UGGAAUUCUCGGGUGCCAA
Residues (chain): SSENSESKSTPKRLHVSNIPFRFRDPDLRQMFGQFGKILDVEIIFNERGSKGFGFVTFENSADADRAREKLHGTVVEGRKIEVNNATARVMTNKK
Sequence | RBNS enrichment (R)
CAGCAGCUGCUGCAGCUGCUGCAGCCGCCUCAGUUGGAGGGACCAUUCCGGGACCUGGCCCUGGGGGUGGACAAAGUCCAAGAGAGGGUGGUGAAAGGAAAAUUGCUGGA | 0.319
UUGAAUACUCCAUCCCCUUCCCUCCCAGUGAAUGGAAUGAGAAAAGCCUUCUUCCUUUGCUUCAGGCAGCUGUCACCUUCUCUUUAUUGGUGGUCCUAAGUGGGUCACUU | 0.405
AACUGUAAUAGCUAUUGGUCUUCAAGUGGGUUUAGAUUUGGUGACAUCAGUUUGAUAUUCUCUUAAAGGAAAUAAAUAUUCAAGAACUGAUUAUGUUCUAACAUGAUUAU | 0.589
GAACUGCAGAAGUUUUUUUAAUGCCACUUUAACACUAAUGCACUGACAGAUUCUAAAUAUUUUGUGAGAAGAAAUGUUAAAAAUUUUUAGCUUGACAGGUUUCUAGAGUU | 1.07
AAAAAUCUGUAUAUACAGUCUAUGUGUUUAGAAUUUGUGUUGUAAGUAAACUACAGCUUUGAGUUGGAAAGAAGUCACGGGUUGUAAAACCAUUUGGAUUUUUUUAAAAC | 0.499
GGUUACAGAGUUCAGCGCUUGGUUCCCAGGGUUUAUAUACGAAACAGCGGAUUGCUGUGGGCUGGUUCAUAAAGUGAAACUAAUGAAUCUAUCUCUUUGUCACUUGCUGG | 0.325
CCUGCUCUUUCUCUUUGGUGCCCCUUAUCUCACCCCUUCCUUGGAAUUUAAUAAGUCUCAGGCAUUUCCAAUUGUAGACUAAAACCACUCUUAGCAUCUCCUCUAGUAUU | 1.22
GAUCCUGGAGAGGCAGGGAUAGUAAAUAAAUUGCUCUUCCUACCCCAUCCCCCAUCCCCUGACAAAAAGUGACGGCAGCCGUACUGAGUCUGUAAGGCCCAAAGUGGGUA | 0.487
UCUGCAAAUACUGUCUUUCCUGGAUUACACAUAGUGUGGUUUCCUGAGGGAUUCUGACUAAUGUGGUUUUUAAAACUUGGGUGUACUUUUUAGGAAAAUUGCAUCUGGCU | 0.883
UAUUGAGGGCAAUAUUUUACUGCUAGCUUGCAAAAUUAUAAGUGUUUUAAAAAUAAAAUACAUGAAAUAUUUAAAGCUGUUGAGAUGUGUUUACUUGCAUUUAAAACAGU | 1.21
CAGCAUGUGGCGGUCUGUGUGAAGCCACCGUGCUUCUCUUUGGGGGGCCGCGAGAUCUAGCAUCUCUGAAAUCCUGGCUGUCGAGGCUUUGAAGCAUGUGUUACCUGGUU | 19.5
CCCACUUUCAGAGUCGAAUCAGCUCUGAGCCUAGGACAGUGCUGGCUCUCUGAGGGCAACCAGGCCUUGUGUCCUGGUACCUGUGACACUGUUGUGGUCACAGCAGUGCC | 0.249

Set 3
Target: Histone acetyltransferase KAT6A, winged helix 1, GST fusion (KAT6A, Homo sapiens, UniProt Q92794, residues 1-85)
Method: protein binding microarray
Form: double-stranded DNA, one strand shown
Medium: in vitro
Tested at: not given
Setting: 8-mer, flanks averaged, mean of 2 arrays, mostly near background
Relative to: not given
Direction: higher = stronger binding
Residues (chain): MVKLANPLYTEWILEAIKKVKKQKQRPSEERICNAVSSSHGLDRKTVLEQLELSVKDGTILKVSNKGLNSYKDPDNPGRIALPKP
Sequence | E-score
CCGAGGGC | 0.232
TGATTGCA | -0.294
ATCATGCG | 0.115
CTATTTCC | -0.137
ATAGTTCG | -0.124
ACCTCCCC | 0.0169
CATCAGGA | -0.246
CGCTCAAC | 0.232
AAGGAAGG | -0.15
ACCAGAAT | -0.0872
CCGCGGTC | 0.413
GGTTATAA | 0.0942
ACCCGATG | 0.261
CAATCTTC | -0.192
ACTAGCGC | 0.343
GCCAACAA | -0.171
AGCTGTTG | -0.128
ACCGTCTA | 0.034
ACGATATG | 0.0567
AGTAAATC | -0.151
AAGATATG | -0.18
TCCGGTAA | 0.123
CGGTTACC | 0.278
CTATGCTC | -0.234
CTCGTTTC | -0.18

Set 4
Target: Ras GTPase-activating protein-binding protein 1, C-terminal RGG region (G3BP1, Homo sapiens, UniProt Q13283)
Chain of UniProt Q13283 (whole entry, looked up): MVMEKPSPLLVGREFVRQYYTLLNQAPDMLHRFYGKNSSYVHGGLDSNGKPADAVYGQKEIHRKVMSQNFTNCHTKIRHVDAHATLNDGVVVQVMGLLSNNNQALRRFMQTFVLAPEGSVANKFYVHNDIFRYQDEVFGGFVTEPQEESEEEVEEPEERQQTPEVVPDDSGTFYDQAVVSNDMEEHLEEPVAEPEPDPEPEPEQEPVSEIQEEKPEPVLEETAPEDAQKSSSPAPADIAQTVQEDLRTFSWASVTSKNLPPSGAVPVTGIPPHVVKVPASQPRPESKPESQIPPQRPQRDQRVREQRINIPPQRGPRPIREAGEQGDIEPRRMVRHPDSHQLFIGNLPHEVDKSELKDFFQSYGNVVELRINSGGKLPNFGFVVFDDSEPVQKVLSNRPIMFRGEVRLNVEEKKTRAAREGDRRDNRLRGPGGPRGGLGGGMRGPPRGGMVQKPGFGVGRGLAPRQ
Method: RNA Bind-n-Seq
Form: RNA
Medium: in vitro
Tested at: 1 µM
Setting: whole 134-nt RNA, ends assumed
With: 150 mM KCl
Relative to: input library
Direction: higher = stronger binding
Shared flanks, not repeated: GGGAGUUCUACAGUCCGACGAUC … UGGAAUUCUCGGGUGUCAAGG
Sequence | log2 enrichment
AGUCCUGUGCUACACAUCGUAUGUACCGAAUCGGGGUUUUGGUUUUGGGGUUUUGGGGAAAGUAUUAUGUUACGCCGUUCGGAUCUGCAC | -0.216
UGGCCCUGGUGGCAUGCGGGGAGGAAGAGGUGUCCUCAUGGAUCGUGGUGGUCCCGGUGGAAUGUUCAGAGGUGGCCGUGGUGGAGACAG | 1.72
UCCUGUGCUACACAUCGUAUGUACCGAAUCGGCCCCCCCGGGCCCCCCCGGCCCCCCCGGAAAGUAUUAUGUUACGCCGUUCGGAUCUGC | -0.661
UUUGAAGAUCAGCUUCAGCAAUGGUUGUCUGAAGACUCAGGAGCAUUUACGGAUUUAACUUCCCUUCCCCUCUAUCUUCCUCAGACUCUA | -0.565
UGGGAGGUGGAUUUUGUUUAUUUUUUUAGCUCAUUUCCAGGGGUGGGAAUUUUUUUUUAAUAUGUGUCAUGAAUAAAGUUGUUUUUGAUA | 2.28
ACCAUGCAGGUGGGCAUCUUUGGGAAGUGGGGCAAGGGGGGGAUAGGGAGGGGGGUAACAAAUUGGGAACAGGUGGUCCCAGGUCGUUUC | -1.06
UCCUGUGCUACACAUCGUAUGUACCGAAUCGGAAAAAAAGGAAAAAAAGGAAAAAAAGGAAAGUAUUAUGUUACGCCGUUCGGAUCUGCA | -1.02
CACAGACAACACGCACCCACACAGACUCAGAGGGAAGGGGUUGGGAUGGGGACAGGGUGCACAGCAGGGCGGGGUAGGACCCCAGCCCCU | -0.232
UGGGAGGUGGAUUUUGUUUAUUUUUUUAGCUCAUUUCCAGGGGUGGGAAUUUUUUUUUAAUAUGUGUCAUGAAUAAAGUUGCUUUUGAAA | 3.57
UCCUGUGCUACACAUCGUAUGUACCGAAUCAAACCCCCCCAAACCCAAAUUUUUUUAAAAAAGUAUUAUGUUACGCCGUUCGGAUCUGCA | -0.664
CCUCAAGUCCUGUGCUACACAUCGUAUGUACCGAAUCGGGAAGGAAGGAAGGAAAGUAUUAUGUUACGCCGUUCGGAUCUGCACUUCCAG | -0.823
UGUUCUGCAGAGGGGCGGUGUCAUUACUGAUGAAGAGGAAACCUCUAAGAAGAUAGCUGACCAGUUGGACAACAUUGUGGACAUGCGCGA | -2.01
AAGUCCUGUGCUACACAUCGUAUGUACCGAAUCGGGGAAAAGGGAAAAGGAAAAGGGAAAGUAUUAUGUUACGCCGUUCGGAUCUGCACU | -1.37
UAACUUUAGAGGAGGAUCUGAUGGAUAGGGCAGUGGACGUGGAUUUGGGGAUGGCUAUAAUGGGUAUGGAGGAGGACCUGGAGGUGGCAA | 0.56

Set 5
Target: Myc proto-oncogene protein, bHLH-zipper, MAX partner unstated (MYC, Homo sapiens, UniProt P01106, residues 368-449)
Chain of UniProt P01106 (368-449, looked up): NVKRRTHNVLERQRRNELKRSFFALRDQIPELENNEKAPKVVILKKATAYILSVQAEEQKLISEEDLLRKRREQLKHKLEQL
Method: protein-binding microarray
Form: double-stranded DNA, one strand shown
Medium: in vitro
Tested at: not given
Setting: k-mer, scored over probes, only values ≥0.25
Direction: higher = stronger binding
Sequence | E-score
ACGCATGC | 0.455
CGTGGTAC | 0.389
CCGCGTGC | 0.474
CACGACCA | 0.288
ACGTGTTC | 0.415
ACACGCTG | 0.412
CACGCCTC | 0.373
ATCCACGC | 0.388
ACACGAGG | 0.472
CGCGCAAC | 0.253
TACCACGA | 0.368
AAGTCACG | 0.273
CACATGAG | 0.389
ACCCCTCC | 0.306
ACGCCTCC | 0.264
CACGCTGG | 0.344

Repeated from above (set 1):
Modification | mean fluorescence intensity
2'F-ANA at 1 2 3 4 8 10 12 13 | 60.5 a.u.
2'F-ANA at 1 4 5 6 7 8 10 11 12 13 15 | 52.4 a.u.
2'F-ANA at 3 4 7 8 10 12 13 | 299 a.u.
2'F-ANA at 1 3 7 8 9 10 11 13 | 78 a.u.
2'F-ANA at 1 5 7 9 10 11 12 13 15 | 47 a.u.
2'F-ANA at 1 2 3 5 7 10 11 12 13 14 | 45.6 a.u.
2'F-ANA at 2 3 4 5 6 8 9 10 11 13 14 | 50.4 a.u.
2'F-ANA at 1 2 3 7 8 9 15 | 270 a.u.
2'F-ANA at 1 2 6 9 10 12 15 | 140 a.u.
2'F-ANA at 3 6 7 8 11 12 14 15 | 565 a.u.
2'F-ANA at 1 3 4 5 6 11 13 | 49.9 a.u.
2'F-ANA at 2 3 4 5 6 8 9 14 15 | 48 a.u.
2'F-ANA at 2 3 4 9 13 14 | 251 a.u.
2'F-ANA at 3 5 7 9 10 11 12 13 15 | 116 a.u.
2'F-ANA at 1 4 6 9 10 11 13 15 | 48.3 a.u.
